Experimental data collected from several papers.
Compare with care: the assays were run in different laboratories.
rep nsp14: Replicase polyprotein 1ab, nsp14 (rep, Severe acute respiratory syndrome coronavirus 2, UniProt P0DTD1)
Sequence of UniProt P11388 (whole entry, looked up): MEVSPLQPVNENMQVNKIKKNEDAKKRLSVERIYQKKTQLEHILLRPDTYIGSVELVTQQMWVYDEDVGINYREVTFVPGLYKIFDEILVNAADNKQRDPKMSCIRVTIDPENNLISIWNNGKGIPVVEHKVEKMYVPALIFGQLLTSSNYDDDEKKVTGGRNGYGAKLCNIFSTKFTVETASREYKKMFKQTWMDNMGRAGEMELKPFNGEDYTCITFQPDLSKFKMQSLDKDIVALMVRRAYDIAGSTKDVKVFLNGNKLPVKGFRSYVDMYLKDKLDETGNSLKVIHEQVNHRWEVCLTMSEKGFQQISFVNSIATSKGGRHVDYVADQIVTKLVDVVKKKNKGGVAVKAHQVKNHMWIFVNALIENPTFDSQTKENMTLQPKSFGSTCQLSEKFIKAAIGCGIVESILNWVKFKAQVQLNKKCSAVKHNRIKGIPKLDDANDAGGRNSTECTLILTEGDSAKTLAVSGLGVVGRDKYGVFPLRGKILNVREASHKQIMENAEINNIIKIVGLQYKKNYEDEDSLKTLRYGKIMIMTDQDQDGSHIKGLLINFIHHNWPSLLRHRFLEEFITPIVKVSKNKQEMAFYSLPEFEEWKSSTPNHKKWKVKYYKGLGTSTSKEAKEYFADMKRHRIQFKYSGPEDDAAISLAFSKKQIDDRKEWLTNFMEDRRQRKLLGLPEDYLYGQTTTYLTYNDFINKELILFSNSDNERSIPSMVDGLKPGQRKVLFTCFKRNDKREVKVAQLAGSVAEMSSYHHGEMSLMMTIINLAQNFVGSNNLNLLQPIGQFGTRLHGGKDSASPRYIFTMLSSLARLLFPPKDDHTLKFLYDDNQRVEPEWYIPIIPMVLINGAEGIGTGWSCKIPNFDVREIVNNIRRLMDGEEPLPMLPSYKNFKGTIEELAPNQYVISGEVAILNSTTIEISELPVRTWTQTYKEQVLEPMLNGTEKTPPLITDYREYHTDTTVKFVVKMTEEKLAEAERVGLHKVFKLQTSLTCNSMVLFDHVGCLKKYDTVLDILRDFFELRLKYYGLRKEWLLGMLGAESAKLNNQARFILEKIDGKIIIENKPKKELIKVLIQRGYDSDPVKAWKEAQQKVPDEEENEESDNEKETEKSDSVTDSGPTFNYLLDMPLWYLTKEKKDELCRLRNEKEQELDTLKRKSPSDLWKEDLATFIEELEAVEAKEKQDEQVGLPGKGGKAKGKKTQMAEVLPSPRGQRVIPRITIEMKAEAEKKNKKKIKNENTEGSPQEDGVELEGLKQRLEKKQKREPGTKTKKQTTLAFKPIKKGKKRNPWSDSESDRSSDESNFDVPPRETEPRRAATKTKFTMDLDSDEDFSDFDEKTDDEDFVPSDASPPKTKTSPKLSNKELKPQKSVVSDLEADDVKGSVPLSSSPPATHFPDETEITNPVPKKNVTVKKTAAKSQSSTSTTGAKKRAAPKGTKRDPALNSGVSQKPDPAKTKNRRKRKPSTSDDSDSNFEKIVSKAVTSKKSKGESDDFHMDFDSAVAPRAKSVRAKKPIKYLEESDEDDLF

COC(=O)Nc1c(N)nc(-c2nn(Cc3ccccc3F)c3ncc(F)cc23)nc1N  AUC ratio (healthy male humans, plasma; 5 mg, single dose, fasting, added: omeprazole 40 mg daily; relative to: with over without co-treatment): 0.678
COc1cc([C@@H]2c3cc4c(cc3[C@@H](O[C@@H]3O[C@@H]5CO[C@@H](C)O[C@H]5[C@H](O)[C@H]3O)[C@H]3COC(=O)[C@H]23)OCO4)cc(OC)c1O  linear DNA (TOP2A (Homo sapiens, UniProt P11388); DNA cleavage; 50 µM): 13.7%
COC(=O)Nc1c(N)nc(-c2nn(Cc3ccccc3F)c3ncc(F)cc23)nc1N  Cmax ratio (healthy men; oral, 10 mg daily, multiple dose, added: sildenafil 25 mg; relative to: with over without sildenafil): 1.01
C[C@H]1O[C@@H](O[C@H]2[C@@H](O)C[C@H](O[C@H]3[C@@H](O)C[C@H](O[C@H]4CC[C@@]5(C)[C@H](CC[C@@H]6[C@@H]5C[C@@H](O)[C@]5(C)[C@@H](C7=CC(=O)OC7)CC[C@]65O)C4)O[C@@H]3C)O[C@@H]2C)C[C@H](O)[C@@H]1O  subjects with adverse event (measured: injury, poisoning, procedural complications; healthy men; oral, dose not given, 8 days, treatment-emergent, crossover trial): 0%
N#CCC1CCN(c2nc(Nc3ccc(N4CCC(O)CC4)cc3)c3c(=O)[nH]ncc3n2)CC1  serum level change (Olink multiplex, measured: CD163; human, serum; 40 mg, day 29, unit not given; relative to: placebo): -1.42
CCn1c(=O)c(-c2cc(NC(=O)Nc3ccccc3)c(F)cc2Br)cc2cnc(NC)cc21  patients with grade 3+ TEAE (measured: injury and poisoning; severe hepatic impairment; 50 mg single dose): 0%
CC1COc2ccccc2N1C(=O)C(Cl)Cl (stereo not drawn)  compound level (carboxylesterase depletion, substrate; Sprague Dawley rat, male, rat liver microsomes; dose not given, 30 min, without NADPH; relative to: inactive microsomes): decreased
CC(C)(C(=O)N1CCOc2c(C#N)cncc2C1)C(F)F  subjects with adverse event (measured: injury, poisoning, procedural complications; human; oral, 20 mg once daily, 14 days, multiple ascending dose): 0%
CC(C)c1nc(N(C)S(C)(=O)=O)nc(-c2ccc(F)cc2)c1/C=C/[C@@H](O)C[C@@H](O)CC(=O)O  subjects with adverse event (measured: injury, poisoning, procedural complications; healthy men; oral, dose not given, 8 days, treatment-emergent, crossover trial): 0%
O=C(Nc1nc2cccc(-c3ccc(CN4CCS(=O)(=O)CC4)cc3)n2n1)C1CC1  patients with adverse event (measured: injury or procedural complication; rheumatoid arthritis patients; oral, 75 mg once daily, 4 weeks, any relatedness): 0%
Cc1cc(-c2nccc3c2ccn3CC(=O)Nc2ccc(-c3cnccn3)cn2)ccn1  injury or procedural TEAEs (healthy human volunteers; oral, 5 mg once daily, 14 days, multiple ascending dose): 25%
OC[C@H]1O[C@@H](O[C@@H]2[C@@H](O)[C@H](O[C@@H]3[C@@H](O)[C@H](O[C@@H]4[C@@H](O)[C@H](O[C@H]5[C@H](O)[C@@H](CO)OC(O)[C@@H]5O)O[C@H](CO)[C@H]4O)O[C@H](CO)[C@H]3O)O[C@H](CO)[C@H]2O)[C@H](O)[C@@H](O)[C@@H]1O (stereo partly drawn)  -TΔS (Bacteroides thetaiotaomicron; binding, ITC; pH 7.0, 25 °C, middle domain): -55.2 kJ/mol
CO/N=C(\C(=O)N[C@@H]1C(=O)N2C(C(=O)O)=C(COC(C)=O)CS[C@H]12)c1csc(N)n1  MIC (Pseudomonas aeruginosa; clinical isolate RKI-No_628/16): > 16 mg/L
COc1ccccc1CNC(=O)c1cc(S(=O)(=O)N2CCC(C)C2)c(C)n1C (stereo not drawn)  IC50 (rep nsp14; inhibitor): 0.57 µM
COc1ccc([C@@H](O)c2cc(-c3ncnc4cc(N5CCOCC5)ccc34)c(F)cc2Cl)nn1  injury poisoning procedural TEAE (locally advanced rectal cancer patients; 150 mg, added: capecitabine and radiotherapy): 33%
CC1COc2ccccc2N1C(=O)C(Cl)Cl (stereo not drawn)  enantiomeric fraction (carboxylesterase hydrolysis; rhesus monkey, male, liver microsomes; 5 µM, 30 min, pH 7.4, without NADPH): 0.26
Cc1c(S(=O)(=O)N2CCn3nccc3C2)cc(C(=O)NCc2cccnc2N2CCCC2)n1C  IC50 (rep nsp14; inhibitor): 0.005 µM
Fc1ccccc1Cc1nc(-c2nc(C(F)(F)F)n[nH]2)cn2ccnc12  subjects with eye TEAEs (healthy human subjects, both sexes; oral, 10 mg, fed): 7.7%

Excerpt of the above:
CC(C)c1nc(N(C)S(C)(=O)=O)nc(-c2ccc(F)cc2)c1/C=C/[C@@H](O)C[C@@H](O)CC(=O)O  subjects with adverse event (measured: injury, poisoning, procedural complications; healthy men; oral, dose not given, 8 days, treatment-emergent, crossover trial): 0%
